Assay results gathered from unrelated publications.
Each line is one published result; not all experiments were run side by side. ± gives the spread as reported.

Nc1nc(Nc2ccc(Cl)c(Cl)c2)nn1S(=O)(=O)c1ccc2ccccc2c1 gave an EC50 of 4800 nM (Zika virus; viral replication; Vero 76, MR766).
For O=C(CCN(CCC(=O)N[C@@H](Cc1c[nH]c2ccccc12)C(=O)O)C(=O)CCN(CCC(=O)N(CCC(=O)N[C@@H](Cc1c[nH]c2ccccc12)C(=O)O)CCC(=O)N[C@@H](Cc1c[nH]c2ccccc12)C(=O)O)C(=O)c1cc(C(=O)N(CCC(=O)N(CCC(=O)N[C@@H](Cc2c[nH]c3ccccc23)C(=O)O)CCC(=O)N[C@@H](Cc2c[nH]c3ccccc23)C(=O)O)CCC(=O)N(CCC(=O)N[C@@H](Cc2c[nH]c3ccccc23)C(=O)O)CCC(=O)N[C@@H](Cc2c[nH]c3ccccc23)C(=O)O)cc(C(=O)N(CCC(=O)N(CCC(=O)N[C@@H](Cc2c[nH]c3ccccc23)C(=O)O)CCC(=O)N[C@@H](Cc2c[nH]c3ccccc23)C(=O)O)CCC(=O)N(CCC(=O)N[C@@H](Cc2c[nH]c3ccccc23)C(=O)O)CCC(=O)N[C@@H](Cc2c[nH]c3ccccc23)C(=O)O)c1)N[C@@H](Cc1c[nH]c2ccccc12)C(=O)O, the EC50 was 8800 ± 50 nM (respiratory syncytial virus; viral replication; HeLa cells, Long).
O=C1NC2(CC2)COc2ncc(F)cc2[C@H]2COCCN2c2ccn3ncc1c3n2 has an organ weight of 3.2 ± 0.533 g (Sprague-Dawley rat, male, kidneys; oral, 20 mg/kg/day, 4 weeks).
COC(=O)c1c(CCl)cc(O)c(=O)c(O)c1C(=O)OC has an EC50 of 400 nM (Hepatitis B virus; viral replication, inhibitor, qPCR; HepDES19).
The EC50 of O=C(NNc1ccccc1)c1nnc(C23CC4CC(CC(C4)C2)C3)o1 is reported as greater than 50 µg/mL (Rhizoctonia solani; microbial growth).
Fc1cccc(COc2ccc(Nc3ncnc4ccc(-c5ccccc5)cc34)cc2Cl)c1 has an EC50 of 1800 nM (Trypanosoma cruzi; intracellular amastigote growth, β-galactosidase CPRG; 3T3, Tulahuen, β-galactosidase-expressing; 96 h).
COCc1cc(O)c(=O)c(O)c(C(=O)OC)c1C(=O)OC has an EC50 of 15000 nM (Hepatitis B virus; viral replication, inhibitor, qPCR; HepDES19).
COc1ccccc1-c1n[nH]c2nc(N[C@H]3CC[C@H](NS(=O)(=O)CC(C)C)CC3)ncc12 gave an EC50 of 0.89 ± 0.02 nM (Leishmania donovani; cell growth; promastigotes, LdBOB CYC9 overexpressing).
With Fc1cccc(COc2ccc(Nc3ncnc4ccc(-c5cccc(CN6CCCCC6)c5)cc34)cc2Cl)c1 the EC50 was 1500 nM (Trypanosoma cruzi; intracellular amastigote growth, β-galactosidase CPRG; 3T3, Tulahuen, β-galactosidase-expressing; 96 h).
With Cc1cc(O)c(=O)c(O)cc1C(=O)O the EC50 was 7200 nM (Hepatitis B virus; viral replication, inhibitor, qPCR; HepDES19).
With CCC1(CC)CC(=O)N(C2c3cc(C(=O)NC4c5ccccc5CC4O)ccc3OC2(C)COC)C(=N)N1 (centres unmarked) the EC50 was 0.5 nM (Plasmodium falciparum; parasite growth; CAM3 REV).
Fc1cccc(COc2ccc(Nc3ncnc4ccc(-c5ccc(CN6CCOCC6)cc5)cc34)cc2Cl)c1 gave an EC50 of 600 nM (Trypanosoma cruzi; intracellular amastigote growth, β-galactosidase CPRG; 3T3, Tulahuen, β-galactosidase-expressing; 96 h).
Nc1nc(Nc2ccc(Cl)cc2)nn1S(=O)(=O)c1ccc2ccccc2c1 has an EC50 of greater than 25000 nM (Mayaro virus; viral replication; Vero 76, BeAr 505411).
For CC(C)(C)OCc1ccc(-c2ccc3ncnc(Nc4ccc(OCc5cccc(F)c5)c(Cl)c4)c3c2)cc1, the EC50 was 2200 nM (Trypanosoma cruzi; intracellular amastigote growth, β-galactosidase CPRG; 3T3, Tulahuen, β-galactosidase-expressing; 96 h).
The EC50 of COC(=O)c1c(C)cc(O)c(=O)c(O)c1C(=O)OC is reported as 2700 nM (Hepatitis B virus; viral replication, inhibitor, qPCR; HepDES19).
For Fc1cccc(COc2ccc(Nc3ncnc4ccc(-c5ccc(N6CCCCC6)cc5)cc34)cc2Cl)c1, the EC50 was 7200 nM (Trypanosoma cruzi; intracellular amastigote growth, β-galactosidase CPRG; 3T3, Tulahuen, β-galactosidase-expressing; 96 h).
C[C@H](NC(=O)[C@@H](O)c1cc(F)cc(F)c1)C(=O)N[C@@H]1C(=O)N(C)c2ccccc2-c2ccccc21 gave an EC50 of 38.9 nM (Zika virus; viral replication; Huh-7.5.1, nanoluciferase reporter; 48 h).
The EC50 of COC(=O)c1c(C)cc(O)c(=O)c(O)c1Br is reported as 7800 nM (Hepatitis B virus; viral replication, inhibitor, qPCR; HepDES19).
S=C=NCc1ccccc1 has an EC50 of 71 nM (Phelipanche ramosa; seed germination, stimulant; seeds).
CN1CCN(S(=O)(=O)c2ccc(-c3ccc4ncnc(Nc5ccc(Cl)cc5)c4c3)cc2)CC1 gave an EC50 of 21400 nM (Trypanosoma cruzi; intracellular amastigote growth, β-galactosidase CPRG; 3T3, Tulahuen, β-galactosidase-expressing; 96 h).
CON(C(=O)c1cn(C)nc1C(F)F)C(C)Cc1c(Cl)cc(Cl)cc1Cl (centres unmarked) has an EC50 of 0.0326 µg/mL (Ustilaginoidea virens; mycelial growth; 12 h).
CN1CCN(S(=O)(=O)c2ccc(-c3ccc4ncnc(Nc5ccccc5)c4c3)cc2)CC1 gave an EC50 of greater than 50000 nM (Trypanosoma cruzi; intracellular amastigote growth, β-galactosidase CPRG; 3T3, Tulahuen, β-galactosidase-expressing; 96 h).
CC(=O)CCC1C(=O)NC(C(C)C)C(=O)NC(Cc2cc(O)cc(F)c2)C(=O)N2CCCC(N2)C(=O)OC(C(C)=CC=CC(=O)N2CCCCO2)CC=CC=CC(O)C(C)C1O (centres unmarked) has an EC50 of 15 ± 2 nM (Hepatitis C virus; viral replication; Huh7, Con1 replicon; 10% human serum).

For quick reference, copied from above:
CN1CCN(S(=O)(=O)c2ccc(-c3ccc4ncnc(Nc5ccc(Cl)cc5)c4c3)cc2)CC1 gave an EC50 of 21400 nM (Trypanosoma cruzi; intracellular amastigote growth, β-galactosidase CPRG; 3T3, Tulahuen, β-galactosidase-expressing; 96 h).
CON(C(=O)c1cn(C)nc1C(F)F)C(C)Cc1c(Cl)cc(Cl)cc1Cl (centres unmarked) has an EC50 of 0.0326 µg/mL (Ustilaginoidea virens; mycelial growth; 12 h).
CN1CCN(S(=O)(=O)c2ccc(-c3ccc4ncnc(Nc5ccccc5)c4c3)cc2)CC1 gave an EC50 of greater than 50000 nM (Trypanosoma cruzi; intracellular amastigote growth, β-galactosidase CPRG; 3T3, Tulahuen, β-galactosidase-expressing; 96 h).
